Measured values of several laboratories.
Lines come from different studies, so protocols differ. “And” joins repeats or separate records; there may be more than shown.
Sequence of UniProt P02911 (whole entry, looked up): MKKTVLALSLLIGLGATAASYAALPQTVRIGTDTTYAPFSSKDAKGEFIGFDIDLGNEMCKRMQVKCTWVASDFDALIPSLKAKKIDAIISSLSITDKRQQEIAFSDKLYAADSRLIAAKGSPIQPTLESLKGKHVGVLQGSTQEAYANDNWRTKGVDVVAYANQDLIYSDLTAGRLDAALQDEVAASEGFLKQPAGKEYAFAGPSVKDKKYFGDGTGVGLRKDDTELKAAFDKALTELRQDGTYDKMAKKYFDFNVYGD
Sequence of UniProt O95747 (whole entry, looked up): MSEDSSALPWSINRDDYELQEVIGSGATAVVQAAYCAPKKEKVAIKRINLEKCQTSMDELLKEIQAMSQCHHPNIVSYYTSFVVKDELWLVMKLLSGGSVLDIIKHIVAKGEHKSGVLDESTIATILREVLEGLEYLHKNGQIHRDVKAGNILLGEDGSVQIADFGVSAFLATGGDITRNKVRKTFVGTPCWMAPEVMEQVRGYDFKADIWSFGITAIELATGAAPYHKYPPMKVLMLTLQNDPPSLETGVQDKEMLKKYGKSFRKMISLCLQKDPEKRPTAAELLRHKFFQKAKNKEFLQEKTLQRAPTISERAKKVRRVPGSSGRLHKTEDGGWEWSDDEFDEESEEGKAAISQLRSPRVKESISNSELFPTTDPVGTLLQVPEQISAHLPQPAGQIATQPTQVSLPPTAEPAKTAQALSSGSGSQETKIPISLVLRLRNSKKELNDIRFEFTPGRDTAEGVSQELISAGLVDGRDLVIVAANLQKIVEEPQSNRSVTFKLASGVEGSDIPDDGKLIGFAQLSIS
Sequence of UniProt P28482 (whole entry, looked up): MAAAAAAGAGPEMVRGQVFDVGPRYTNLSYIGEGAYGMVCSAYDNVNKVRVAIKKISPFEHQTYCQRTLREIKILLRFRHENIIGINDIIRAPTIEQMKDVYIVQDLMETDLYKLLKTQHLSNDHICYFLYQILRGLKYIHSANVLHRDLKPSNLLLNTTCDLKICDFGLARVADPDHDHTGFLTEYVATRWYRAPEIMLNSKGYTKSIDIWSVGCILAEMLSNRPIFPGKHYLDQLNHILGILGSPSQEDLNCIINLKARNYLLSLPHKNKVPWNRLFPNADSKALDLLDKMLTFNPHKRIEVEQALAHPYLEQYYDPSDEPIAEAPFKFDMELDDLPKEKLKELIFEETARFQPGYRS
Sequence of UniProt P25440 (whole entry, looked up): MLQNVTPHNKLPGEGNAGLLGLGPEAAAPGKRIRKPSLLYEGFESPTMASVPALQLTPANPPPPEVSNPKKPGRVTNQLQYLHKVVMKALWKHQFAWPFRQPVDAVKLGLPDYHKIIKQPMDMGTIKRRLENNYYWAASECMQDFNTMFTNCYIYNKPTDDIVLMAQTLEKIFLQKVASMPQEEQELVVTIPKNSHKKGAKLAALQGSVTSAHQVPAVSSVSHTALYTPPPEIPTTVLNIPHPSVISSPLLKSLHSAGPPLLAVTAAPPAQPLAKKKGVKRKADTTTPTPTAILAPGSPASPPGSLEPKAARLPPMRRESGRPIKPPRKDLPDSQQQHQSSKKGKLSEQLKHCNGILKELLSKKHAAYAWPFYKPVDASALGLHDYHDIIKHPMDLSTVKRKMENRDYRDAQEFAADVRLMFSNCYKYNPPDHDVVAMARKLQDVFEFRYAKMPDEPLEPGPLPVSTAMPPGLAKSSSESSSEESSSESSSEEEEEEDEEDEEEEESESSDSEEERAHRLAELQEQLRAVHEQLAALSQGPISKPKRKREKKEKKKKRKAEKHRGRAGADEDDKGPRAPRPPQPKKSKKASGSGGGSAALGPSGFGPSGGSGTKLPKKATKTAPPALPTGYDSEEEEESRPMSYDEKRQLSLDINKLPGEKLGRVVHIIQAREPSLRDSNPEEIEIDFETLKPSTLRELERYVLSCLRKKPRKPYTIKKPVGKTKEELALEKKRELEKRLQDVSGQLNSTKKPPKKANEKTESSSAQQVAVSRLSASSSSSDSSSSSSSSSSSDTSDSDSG
Sequence of UniProt P04629 (whole entry, looked up): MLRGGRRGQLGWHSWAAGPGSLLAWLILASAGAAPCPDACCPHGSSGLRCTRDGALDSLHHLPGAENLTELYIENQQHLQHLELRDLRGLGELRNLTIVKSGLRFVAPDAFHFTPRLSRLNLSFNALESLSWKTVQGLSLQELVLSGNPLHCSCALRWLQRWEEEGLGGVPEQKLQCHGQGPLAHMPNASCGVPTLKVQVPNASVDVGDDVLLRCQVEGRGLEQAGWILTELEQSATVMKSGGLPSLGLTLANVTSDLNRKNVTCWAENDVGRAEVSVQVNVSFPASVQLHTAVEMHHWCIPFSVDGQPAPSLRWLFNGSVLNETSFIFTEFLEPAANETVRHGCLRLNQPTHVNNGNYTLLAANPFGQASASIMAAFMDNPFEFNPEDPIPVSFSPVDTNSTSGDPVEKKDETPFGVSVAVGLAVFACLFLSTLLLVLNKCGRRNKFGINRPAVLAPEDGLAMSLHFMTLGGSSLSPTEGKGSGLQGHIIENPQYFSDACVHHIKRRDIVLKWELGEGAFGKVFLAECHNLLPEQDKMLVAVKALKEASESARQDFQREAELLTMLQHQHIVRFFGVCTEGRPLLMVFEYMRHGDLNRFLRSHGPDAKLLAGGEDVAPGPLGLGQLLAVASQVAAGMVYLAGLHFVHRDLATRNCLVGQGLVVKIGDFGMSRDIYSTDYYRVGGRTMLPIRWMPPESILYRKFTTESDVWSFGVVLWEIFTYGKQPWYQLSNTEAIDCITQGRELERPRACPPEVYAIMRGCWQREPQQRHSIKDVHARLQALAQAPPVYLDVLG
Sequence of UniProt Q7CTU0 (whole entry, looked up): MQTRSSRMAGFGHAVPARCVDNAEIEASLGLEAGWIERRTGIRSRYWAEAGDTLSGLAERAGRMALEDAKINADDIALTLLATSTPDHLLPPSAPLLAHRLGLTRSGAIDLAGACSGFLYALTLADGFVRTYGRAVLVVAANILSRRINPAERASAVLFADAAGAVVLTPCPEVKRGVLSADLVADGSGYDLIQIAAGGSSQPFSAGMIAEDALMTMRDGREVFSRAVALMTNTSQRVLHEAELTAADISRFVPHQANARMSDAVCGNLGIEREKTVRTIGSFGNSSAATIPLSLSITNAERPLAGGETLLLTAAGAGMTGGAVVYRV
Sequence of UniProt P35520 (whole entry, looked up): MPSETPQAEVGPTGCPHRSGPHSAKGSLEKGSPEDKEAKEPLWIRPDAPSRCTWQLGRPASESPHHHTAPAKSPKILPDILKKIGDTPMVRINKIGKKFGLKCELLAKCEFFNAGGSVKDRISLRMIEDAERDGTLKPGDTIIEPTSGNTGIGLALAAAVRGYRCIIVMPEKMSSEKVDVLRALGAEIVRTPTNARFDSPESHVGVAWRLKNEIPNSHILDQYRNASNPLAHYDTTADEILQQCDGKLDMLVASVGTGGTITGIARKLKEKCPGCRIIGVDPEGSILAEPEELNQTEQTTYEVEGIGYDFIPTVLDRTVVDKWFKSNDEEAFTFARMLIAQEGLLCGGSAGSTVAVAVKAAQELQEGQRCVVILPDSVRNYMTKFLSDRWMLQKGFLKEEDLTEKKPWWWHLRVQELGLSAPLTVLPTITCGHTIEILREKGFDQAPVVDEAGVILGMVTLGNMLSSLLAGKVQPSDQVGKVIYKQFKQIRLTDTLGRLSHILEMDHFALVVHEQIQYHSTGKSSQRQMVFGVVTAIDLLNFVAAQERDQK
Sequence of UniProt P37231 (whole entry, looked up): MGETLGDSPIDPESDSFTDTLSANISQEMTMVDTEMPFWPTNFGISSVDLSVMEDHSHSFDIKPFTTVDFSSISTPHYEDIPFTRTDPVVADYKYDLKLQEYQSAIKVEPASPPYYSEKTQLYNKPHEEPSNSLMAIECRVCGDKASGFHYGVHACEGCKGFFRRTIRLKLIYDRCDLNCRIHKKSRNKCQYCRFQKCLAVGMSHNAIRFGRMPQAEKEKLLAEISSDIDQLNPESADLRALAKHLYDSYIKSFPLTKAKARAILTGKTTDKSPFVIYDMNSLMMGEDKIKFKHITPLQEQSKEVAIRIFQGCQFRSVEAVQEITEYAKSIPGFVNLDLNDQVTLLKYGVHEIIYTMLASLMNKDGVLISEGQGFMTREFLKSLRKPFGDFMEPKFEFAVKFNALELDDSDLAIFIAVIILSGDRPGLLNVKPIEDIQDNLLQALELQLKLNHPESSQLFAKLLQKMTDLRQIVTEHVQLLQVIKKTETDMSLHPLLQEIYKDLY
Sequence of UniProt P22557 (whole entry, looked up): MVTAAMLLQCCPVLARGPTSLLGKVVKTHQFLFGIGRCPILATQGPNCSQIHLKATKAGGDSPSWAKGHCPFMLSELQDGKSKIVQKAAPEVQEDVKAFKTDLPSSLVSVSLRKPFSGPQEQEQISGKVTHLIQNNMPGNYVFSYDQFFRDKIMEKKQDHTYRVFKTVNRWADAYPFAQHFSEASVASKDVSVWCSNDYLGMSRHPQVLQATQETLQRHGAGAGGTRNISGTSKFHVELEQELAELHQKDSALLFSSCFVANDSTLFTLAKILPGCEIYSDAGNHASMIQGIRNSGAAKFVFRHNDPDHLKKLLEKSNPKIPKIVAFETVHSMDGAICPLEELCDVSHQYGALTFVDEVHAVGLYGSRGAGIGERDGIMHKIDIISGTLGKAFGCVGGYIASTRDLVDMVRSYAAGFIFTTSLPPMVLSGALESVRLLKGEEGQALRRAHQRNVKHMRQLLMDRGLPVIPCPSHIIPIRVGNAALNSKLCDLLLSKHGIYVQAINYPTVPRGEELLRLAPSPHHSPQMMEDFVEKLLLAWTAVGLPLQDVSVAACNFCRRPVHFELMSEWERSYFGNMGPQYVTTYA
Sequence of UniProt Q16774 (whole entry, looked up): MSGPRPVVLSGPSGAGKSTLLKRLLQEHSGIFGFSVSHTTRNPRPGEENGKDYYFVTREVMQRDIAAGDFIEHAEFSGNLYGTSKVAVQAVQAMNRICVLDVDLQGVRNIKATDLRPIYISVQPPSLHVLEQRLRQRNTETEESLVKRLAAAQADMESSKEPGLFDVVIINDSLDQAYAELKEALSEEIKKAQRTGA

SMILES	target	effect on	mode	technique	tested at	endpoint	result
FC(F)OC(Cl)C(F)(F)F (centres unmarked)	CBS (Homo sapiens, UniProt P35520)	binding		ITC		Kd	16600 nM
Nc1nc2c(ncn2[C@@H]2O[C@H](COP(=O)(O)OP(=O)(O)O)[C@@H](O)[C@H]2O)c(=O)[nH]1	GUK1 (Homo sapiens, UniProt Q16774)	binding		ITC		Kd	26000 nM
C=CC1=C(C)C2=Cc3c(C=C)c(C)c4[n]3[Fe]([Cl])[n]3c(c(C)c(CCC(=O)O)c3=CC3=NC(=C4)C(C)=C3CCC(=O)O)=CC1=N2	5-aminolevulinate synthase, erythroid-specific, mitochondrial (Human, UniProt P22557)	binding		ITC		Kd	232 nM
O=C(O)CC[C@H](NC(=O)N[C@@H](CCC(=O)NCCOCCOCCNC(=S)Nc1ccc2c(c1)C(=O)OC21c2ccc(O)cc2Oc2cc(O)ccc21)C(=O)O)C(=O)O	FOLH1 (Homo sapiens, UniProt Q04609)	cell-free assay		FP		Kd	0.9 nM
N=C(N)NCCC[C@H](N)C(=O)O	argT (Salmonella enterica, UniProt P02911)	binding		ITC		Kd	20.8 nM and 10.2 nM
CNc1ncc2c(/C=C/C(=O)N3CCC(OC)CC3)nn(Cc3cccc(C(F)(F)F)c3)c2n1	MAPK1 (Homo sapiens, UniProt P28482)	enzyme activity	inhibitor	radiometric	1 µM	remaining activity	88%
COc1cc(-c2cncc3c2CN(C)Cc2cc(N4CCNCC4)ccc2-3)cc(OC)c1OC	NTRK1 (Homo sapiens, UniProt P04629)	enzyme activity	inhibitor		1 µM	remaining activity	117%
CCCc1nc2c(C)cc(-c3nc4ccccc4n3C)cc2n1Cc1ccc(-c2ccccc2C(=O)O)cc1	PPARG (Homo sapiens, UniProt P37231)	binding		ITC		Kd	7960 nM
CC(=O)N[C@H](C(=O)N1C[C@H](O)C[C@H]1C(=O)NCc1ccc(-c2scnc2C)cc1)C(C)(C)SCCCCCCNC(=O)C[C@@H]1N=C(c2ccc(Cl)cc2)c2c(sc(C)c2C)-n2c(C)nnc21	Bromodomain-containing protein 4, BD1 (BRD4, Homo sapiens, UniProt O60885)	binding		ITC		Kd	75 nM
COCc1nc2cnc3cc(-c4c(C)noc4C)c(OC[C@H]4CCNC4)cc3c2n1[C@H](C)c1ccccc1	Bromodomain-containing protein 2, BD1 (BRD2, Homo sapiens, UniProt P25440)	binding		SPR		Kd	7.78 nM
Cc1nn2c(N3CCN(CCO)CC3)cc(-c3ccccc3)nc2c1-c1ccccc1	GTPase KRas (KRAS, Homo sapiens, UniProt P01116)	binding		MST		Kd	1900 nM
CC(C)(COP(=O)(O)OP(=O)(O)OC[C@H]1O[C@@H](n2cnc3c(N)ncnc32)[C@H](O)[C@@H]1OP(=O)(O)O)[C@@H](O)C(=O)NCCC(=O)NCCSC(=O)CCCC(=O)O	bioZ (Agrobacterium fabrum, UniProt Q7CTU0)	binding		ITC		Kd	190 nM
Cc1cnc(-c2ccc(-c3ccc(NC(=O)Nc4c(F)cc(F)cc4F)cc3F)c3c2C(=O)NC3)[nH]1	TNIK (Homo sapiens, UniProt Q9UKE5)	binding		competition with immobilised ligand		Kd	4.7 nM
C=CC(=O)N1CCC(COCC(=O)N2CCN(c3nc(-c4cnc(N)nc4C(F)F)nc(N4CCOC[C@@H]4C)n3)CC2)CC1	OXSR1 (Homo sapiens, UniProt O95747)	binding		competition with immobilised ligand	1 µM	remaining binding	88%

Repeated from above:
SMILES	target	effect on	mode	technique	tested at	endpoint	result
CC(C)(COP(=O)(O)OP(=O)(O)OC[C@H]1O[C@@H](n2cnc3c(N)ncnc32)[C@H](O)[C@@H]1OP(=O)(O)O)[C@@H](O)C(=O)NCCC(=O)NCCSC(=O)CCCC(=O)O	bioZ (Agrobacterium fabrum, UniProt Q7CTU0)	binding		ITC		Kd	190 nM
